{"data": "Published values pooled from the literature", "note": "Numbered parts are unrelated; each lists some results of a single study."}
{"data": "Series 1", "target": "Prothrombin, mature alpha-thrombin (F2, Homo sapiens, UniProt P00734)", "technique": "aptamer microarray, sandwich", "molecule type": "DNA with 2'F-ANA", "matrix": "in vitro", "concentration": "200 nM", "notes": "whole 15-mer aptamer, many near background", "added": "Cy3 exosite-II aptamer, 400 nM", "direction": "higher = stronger binding", "strand": "GGTTGGTGTGGTTGG"}
{"Modification": "2'F-ANA at 1 2 4 5 6 7 10 13 15", "mean fluorescence intensity [a.u.]": 50.3}
{"Modification": "2'F-ANA at 1 3 6 7", "mean fluorescence intensity [a.u.]": 290}
{"Modification": "2'F-ANA at 2 6 8 10 13 15", "mean fluorescence intensity [a.u.]": 97.4}
{"Modification": "2'F-ANA at 2 4 5 7 8 14", "mean fluorescence intensity [a.u.]": 46.8}
{"Modification": "2'F-ANA at 5 6 7 9 10 13", "mean fluorescence intensity [a.u.]": 44.9}
{"Modification": "2'F-ANA at 1 2 3 4 8 9 10 15", "mean fluorescence intensity [a.u.]": 90.3}
{"Modification": "2'F-ANA at 1 2 4 10 12 14 15", "mean fluorescence intensity [a.u.]": 46.3}
{"Modification": "2'F-ANA at 1 2 3 5 7 8 9 10 11 13 14", "mean fluorescence intensity [a.u.]": 60.9}
{"Modification": "2'F-ANA at 1 3 4 5 7 8 9 15", "mean fluorescence intensity [a.u.]": 70}
{"Modification": "2'F-ANA at 1 2 4 5 7 8 9 11 12 13 14 15", "mean fluorescence intensity [a.u.]": 48.4}
{"Modification": "2'F-ANA at 2 3 4 5 6 7 8 13", "mean fluorescence intensity [a.u.]": 69}
{"Modification": "2'F-ANA at 2 3 5 6 7 8 10 14", "mean fluorescence intensity [a.u.]": 71.8}
{"Modification": "2'F-ANA at 3 5 7 9 12 14", "mean fluorescence intensity [a.u.]": 78.7}
{"Modification": "2'F-ANA at 3 4 6 10 12 14 15", "mean fluorescence intensity [a.u.]": 192}
{"Modification": "2'F-ANA at 1 4 5 6 7 9 11", "mean fluorescence intensity [a.u.]": 77.7}
{"Modification": "2'F-ANA at 3 5 7 9 11 13", "mean fluorescence intensity [a.u.]": 89.5}
{"Modification": "2'F-ANA at 3 7 11 12 13", "mean fluorescence intensity [a.u.]": 1240}
{"Modification": "2'F-ANA at 1 3 7 8 15", "mean fluorescence intensity [a.u.]": 405}
{"data": "Series 2", "target": "RNA binding protein fox-1 homolog 2, RRM domain, GST-SBP tag (RBFOX2, Homo sapiens, UniProt O43251-10, residues 100-194)", "technique": "RNA Bind-n-Seq", "molecule type": "RNA", "matrix": "in vitro", "concentration": "365 nM", "notes": "natural RNA segment, single round, ends assumed", "relative to": "no-protein control", "direction": "higher = stronger binding", "shared flanks, not repeated": "GGGAGUUCUACAGUCCGACGAUC … UGGAAUUCUCGGGUGCCAA", "Residues (chain)": "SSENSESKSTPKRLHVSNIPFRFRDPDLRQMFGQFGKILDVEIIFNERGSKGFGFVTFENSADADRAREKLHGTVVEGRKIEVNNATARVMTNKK"}
{"Strand": "ACUUGGAAAAAUGUACAUGAUGUGAAACUGGGGUGCUAUGUUAAAAAUAAAUGUAUGAUAACUCAUGAUUUUGUGGUGUCCUGGUGUCAGUAUUUUCUGAUUUCUAUUUG", "RBNS enrichment (R)": 0.332}
{"Strand": "AAGGAGCUGUUUGCCCUGAAACCCAUGAACUGCCCAGGACACUGGCUUAUGUUUGAUCAUCGGCCAAGGUCCUGGCGAGAACUGCCUCUGCGGCUAGCUGAUUUUGGGGU", "RBNS enrichment (R)": 0.211}
{"Strand": "UUUUCAGGGAAAACUAUAUAAAAGCUUUCUGAGCCACAGCCUUUUAAAAGGGGAAAGGCUAAUAGUAAAAUUUGACUUUCUGACUGCAUGCAACUGCUGGGCUUGCCUUC", "RBNS enrichment (R)": 1.28}
{"Strand": "UCUCAUUGUUUUUCUCUAGCUACCCUACUCAUCACUGGCUCCCUCAGCACCAGGCCUGUAUAACGUGGUUCUCACGUUACCCUGGCAGCAUACAGGAUGGGGAGUCUGGU", "RBNS enrichment (R)": 0.613}
{"Strand": "AGCUCCAAGAAGUCAGCACACCUGCAUUUUAGCUCUGCAUGCAGCCCCAGCAGGCUGCGUGUUUAAGAAUUUCAUUGUUUAACUGGCUGGUGUGAGAAGUCUUCCGUUAG", "RBNS enrichment (R)": 0.308}
{"Strand": "UGCCUGUACCUCCGUUGUAUCUAGGAAGUAACUAACUAGCCUUUGAUUUUACAGGCUCAUAGGUGGAAGGGACUUGCCUUGUUUCAGAUGAGACUUUGGAGUAUGGACUU", "RBNS enrichment (R)": 0.663}
{"Strand": "UGUUUCAGGUUCACGUUCAGCUCUGACCUUGAGUUCAUUUCCAGUGCUUGCCUUCUCUCCAAGGCCAUGGCAUGAGUUCACAGAAUAUAUAUUUUCGGCAGAUUGAGCUU", "RBNS enrichment (R)": 0.345}
{"Strand": "AAGCCUGGGGAGGGGUUCCUCAGUGCAGGAGUUGGGGACAGGCUGGGGAUCCAAGCUGCUUGAGGGGGUCAACCUUGGACCAAAGUUGCCUUAAGCCUGUGGUAAAAGGG", "RBNS enrichment (R)": 0.623}
{"data": "Series 3", "target": "Interferon regulatory factor 5, full length, phosphomimetic (IRF5, Homo sapiens, UniProt Q13568-2, residues 1-514, S451D/S453D/S456D/S462D)", "technique": "protein-binding microarray", "molecule type": "double-stranded DNA, one strand shown", "matrix": "in vitro", "concentration": "940 nM top", "notes": "60-bp whole probe", "added": "salmon DNA 0.4 mg/ml", "relative to": "random background probes", "direction": "higher = stronger binding", "shared flanks, not repeated": "GCCTAGCAC … GTCTTGATTCGCTTGACGCTGCTG"}
{"Strand": "TTAGGACTGGACTTTCGGTTGGTGCTA", "fitted relative affinity": "2.18 z-score"}
{"Strand": "TCAATTCTCATTTCCAAACTGTGCTAG", "fitted relative affinity": "2.21 z-score"}
{"Strand": "CAGCACATGCATCTCCCACAGTGCTAG", "fitted relative affinity": "0.191 z-score"}
{"Strand": "GACGATCTCAGTTTCGAGGCGTGCTAG", "fitted relative affinity": "3.84 z-score"}
{"Strand": "GACGATGTCAGTTTCGAGACGTGCTAG", "fitted relative affinity": "3.71 z-score"}
{"Strand": "TCACATTTTCGTTTTGTACTGTGCTAG", "fitted relative affinity": "2.26 z-score"}
{"Strand": "GACGGTATCGGACTGGAGACGTGCTAG", "fitted relative affinity": "2.46 z-score"}
{"Strand": "TCACAATTCTTTTTATGACTGTGCTAG", "fitted relative affinity": "0.786 z-score"}
{"Strand": "GACGATTTCGAGTATCGAGACGTGCTA", "fitted relative affinity": "1.71 z-score"}
{"Strand": "TTAGGACTGCACACTGGGTTAGTGCTA", "fitted relative affinity": "-0.417 z-score"}
{"Strand": "TTAGATCCCAGTTTCGATTAGTGCTAG", "fitted relative affinity": "7.78 z-score"}
{"Strand": "TCAGAACTGTTTCTTGAACTGTGCTAG", "fitted relative affinity": "0.0697 z-score"}
{"Strand": "GACGGACTGGACTTACGGGACGTGCTA", "fitted relative affinity": "-0.554 z-score"}
{"Strand": "TCATAATTCTCTTTTCAACTGTGCTAG", "fitted relative affinity": "1.56 z-score"}
{"Strand": "GCTGCCCTCACCATCATCCTGTGCTAG", "fitted relative affinity": "0.52 z-score"}
{"Strand": "TTAGGTATCGGTCTCGATTAGTGCTAG", "fitted relative affinity": "9.56 z-score"}
{"Strand": "CGGGCTTTCCCGTCCAGGGCGTGCTAG", "fitted relative affinity": "-0.0534 z-score"}
{"Strand": "GAAGGTATCCTTATCCTGACGTGCTAG", "fitted relative affinity": "0.178 z-score"}
{"Strand": "GACGATTTCCTACTGCTGACGTGCTAG", "fitted relative affinity": "0.684 z-score"}
{"data": "Series 4", "target": "Histone acetyltransferase KAT6A, both winged helices, GST fusion (KAT6A, Homo sapiens, UniProt Q92794, residues 1-181)", "technique": "protein binding microarray", "molecule type": "double-stranded DNA, one strand shown", "matrix": "in vitro", "concentration": "not given", "notes": "8-mer, flanks averaged, mean of 2 arrays, mostly near background", "relative to": "not given", "direction": "higher = stronger binding", "Target sequence (chain)": "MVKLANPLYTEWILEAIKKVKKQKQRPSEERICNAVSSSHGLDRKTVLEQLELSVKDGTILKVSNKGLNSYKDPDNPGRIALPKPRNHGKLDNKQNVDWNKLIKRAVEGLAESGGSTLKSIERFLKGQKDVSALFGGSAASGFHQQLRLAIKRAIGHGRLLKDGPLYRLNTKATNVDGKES"}
{"Strand": "GTAGGCGA", "E-score": -0.0646}
{"Strand": "ACATGCCC", "E-score": -0.0545}
{"Strand": "AACCCGAA", "E-score": 0.117}
{"Strand": "CGAGACAC", "E-score": -0.0801}
{"Strand": "AGACGACA", "E-score": -0.0131}
{"Strand": "CTAATCCA", "E-score": -0.155}
{"Strand": "AGGATCCT", "E-score": -0.192}
{"Strand": "AGTGCAAG", "E-score": -0.111}
{"Strand": "CAAGATGC", "E-score": -0.14}
{"Strand": "CATCCAGA", "E-score": -0.105}
{"Strand": "CCACGGCA", "E-score": 0.25}
{"Strand": "GCCGAGGC", "E-score": 0.21}
{"Strand": "CGCAGACA", "E-score": 0.107}
{"Strand": "ATTTGTGC", "E-score": 0.0325}
{"Strand": "ATGAGTTG", "E-score": -0.0752}
{"Strand": "CATTGTGA", "E-score": -0.156}
{"note": "Excerpt of the above (series 4):"}
{"Strand": "CATCCAGA", "E-score": -0.105}
{"Strand": "CATTGTGA", "E-score": -0.156}
{"Strand": "AACCCGAA", "E-score": 0.117}
{"Strand": "ACATGCCC", "E-score": -0.0545}
{"Strand": "CGCAGACA", "E-score": 0.107}
{"Strand": "GTAGGCGA", "E-score": -0.0646}
{"Strand": "CCACGGCA", "E-score": 0.25}
{"Strand": "CTAATCCA", "E-score": -0.155}
{"Strand": "AGTGCAAG", "E-score": -0.111}
{"Strand": "CAAGATGC", "E-score": -0.14}
